Published values from different studies.
A part holds a random share of what one study measured. Substitutions count along the parent as printed.
Chain of UniProt Q08881 (whole entry, looked up): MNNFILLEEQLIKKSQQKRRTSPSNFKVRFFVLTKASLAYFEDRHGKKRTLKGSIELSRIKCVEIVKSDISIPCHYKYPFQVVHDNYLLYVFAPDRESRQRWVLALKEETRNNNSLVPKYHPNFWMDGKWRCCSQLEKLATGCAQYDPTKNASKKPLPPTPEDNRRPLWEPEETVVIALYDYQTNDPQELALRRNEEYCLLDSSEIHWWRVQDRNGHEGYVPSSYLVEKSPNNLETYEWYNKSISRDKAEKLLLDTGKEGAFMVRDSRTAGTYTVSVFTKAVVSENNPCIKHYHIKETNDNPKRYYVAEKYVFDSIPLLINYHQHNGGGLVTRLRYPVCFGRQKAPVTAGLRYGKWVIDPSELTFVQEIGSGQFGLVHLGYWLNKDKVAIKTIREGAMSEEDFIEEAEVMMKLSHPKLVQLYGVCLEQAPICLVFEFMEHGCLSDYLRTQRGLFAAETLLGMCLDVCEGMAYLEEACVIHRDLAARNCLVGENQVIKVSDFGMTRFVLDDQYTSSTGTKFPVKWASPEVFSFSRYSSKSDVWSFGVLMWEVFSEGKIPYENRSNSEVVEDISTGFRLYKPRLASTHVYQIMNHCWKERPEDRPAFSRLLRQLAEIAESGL

Set 1 — target: CRIPT, C-terminal peptide; technique: DHFR complementation, deep sequencing; medium: yeast; relative to: wild type; direction: higher = weaker binding
Setting: single substitutions, model-inferred values
Starting sequence: ERBIN, PDZ domain 1 (human); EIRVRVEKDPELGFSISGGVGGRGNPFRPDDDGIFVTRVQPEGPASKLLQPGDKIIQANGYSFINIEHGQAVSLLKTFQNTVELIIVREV; partner TKNYKQTSV
Change	binding free energy change [kcal/mol]
N80G	-0.212
G18L	1.05
K76E	1.02
D53Q	0.374
G18D	1.52
R28P	1.33
F78W	0.142
I64K	-0.00494

Set 2 — technique: protein binding microarray; molecule type: double-stranded DNA, one strand shown; medium: in vitro; tested at: not given; relative to: not given; direction: higher = stronger binding
Target: Histone acetyltransferase KAT6A, winged helix 2, GST fusion (KAT6A, Homo sapiens, UniProt Q92794, residues 85-181)
Setting: 8-mer, flanks averaged, mean of 2 arrays, mostly near background
Residues (chain): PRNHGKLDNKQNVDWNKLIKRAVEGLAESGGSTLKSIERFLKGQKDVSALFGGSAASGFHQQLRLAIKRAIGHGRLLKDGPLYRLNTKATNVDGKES
Strand	E-score
CGTCCGAA	0.0808
GTTGGCCA	-0.152
CCTTTATC	-0.0351
AAGGGTCC	0.0233
ACGTCCCC	-0.16
AGTTGTAG	-0.0609
TCAGCTAA	0.00629
CTAGCGCC	0.139

Further values, each from its own experiment
Substance	target or system	test	test system	conditions	how to read	endpoint	result
SRSF1 (Homo sapiens, UniProt Q07955)	RNPS1 (Homo sapiens, UniProt Q15287)	cross-linking MS	cell fractions	with: DSSO	–	cross-linked residues	T178 to K188
O=C1NC(=O)/C(=C/c2ccc3c(c2)OC(F)(F)O3)S1	Tyrosine-protein kinase ITK/TSK (ITK, Homo sapiens, UniProt Q08881)	enzyme activity, inhibitor	–	0.5 µM	relative to: control	remaining activity	92.9%

Some of these lines once more (set 1):
Change	binding free energy change [kcal/mol]
N80G	-0.212
G18L	1.05
K76E	1.02
